Assay results pooled from the literature.
Parts stem from different laboratories: compare values within a part only.
UniProt O15294, sequence (whole entry, looked up): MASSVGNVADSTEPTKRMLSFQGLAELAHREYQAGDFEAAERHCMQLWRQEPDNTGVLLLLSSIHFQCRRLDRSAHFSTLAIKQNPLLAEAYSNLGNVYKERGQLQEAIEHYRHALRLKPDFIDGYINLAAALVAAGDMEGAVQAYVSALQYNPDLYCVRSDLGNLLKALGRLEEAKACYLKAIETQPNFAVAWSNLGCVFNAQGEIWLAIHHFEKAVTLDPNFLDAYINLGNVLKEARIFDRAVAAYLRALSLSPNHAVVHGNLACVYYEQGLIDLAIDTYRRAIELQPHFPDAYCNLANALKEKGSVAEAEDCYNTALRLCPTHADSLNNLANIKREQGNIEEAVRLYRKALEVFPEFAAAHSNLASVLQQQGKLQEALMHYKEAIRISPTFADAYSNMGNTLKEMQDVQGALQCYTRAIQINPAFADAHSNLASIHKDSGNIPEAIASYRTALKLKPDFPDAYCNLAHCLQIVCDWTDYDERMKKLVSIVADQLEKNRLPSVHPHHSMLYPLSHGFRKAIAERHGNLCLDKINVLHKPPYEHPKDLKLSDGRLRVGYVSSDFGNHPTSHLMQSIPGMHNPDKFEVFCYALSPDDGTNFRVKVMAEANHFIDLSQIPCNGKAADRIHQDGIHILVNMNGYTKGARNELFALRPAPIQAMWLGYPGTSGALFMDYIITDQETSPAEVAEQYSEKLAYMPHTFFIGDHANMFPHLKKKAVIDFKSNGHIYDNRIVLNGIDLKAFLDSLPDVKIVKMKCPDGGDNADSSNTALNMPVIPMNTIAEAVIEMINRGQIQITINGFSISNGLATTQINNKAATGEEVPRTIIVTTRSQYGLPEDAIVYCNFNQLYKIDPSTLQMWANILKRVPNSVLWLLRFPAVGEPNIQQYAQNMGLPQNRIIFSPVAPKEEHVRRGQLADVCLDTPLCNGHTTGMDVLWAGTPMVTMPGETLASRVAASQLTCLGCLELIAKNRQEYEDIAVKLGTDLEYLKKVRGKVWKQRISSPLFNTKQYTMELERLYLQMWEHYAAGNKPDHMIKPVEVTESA

Set 1
Target: RNA binding protein fox-1 homolog 2, RRM domain, GST-SBP tag (RBFOX2, Homo sapiens, UniProt O43251-10, residues 100-194)
Technique: RNA Bind-n-Seq
Molecule type: RNA
Matrix: in vitro
Tested at: 365 nM
Notes: natural RNA segment, single round, ends assumed
Baseline: no-protein control
Reading: higher = stronger binding
All sequences stand within: GGGAGUUCUACAGUCCGACGAUC … UGGAAUUCUCGGGUGCCAA
Residues (chain): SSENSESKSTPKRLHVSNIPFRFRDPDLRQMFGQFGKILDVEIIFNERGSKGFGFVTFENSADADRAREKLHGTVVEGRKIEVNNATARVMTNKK
`GCCAAGGCCGCCAGCGUGUGGAGCAGAGCUCUCCCCUCCUGCUGGGCGUGUGUGACACUGAUGAGUUUCACUGUACUGCAUGUGACUUCUCCCCUGCCCUUCCUCCUGAU` — result for “RBNS enrichment (R)”: 1.77.
`UCCUUAUUUUUUUCUUUCAAAUAACUUUAAUUAUUUAAUCCCAUACUGAUUAAAAUAUGUCUGUCUAAAGGGAUCUACUACUAUUUGCUUUUAAAAAAGUGUUCCCUAUU`: “RBNS enrichment (R)” 2.43.
`GUUUGCCAUUGCAAGCAUAGUGCUGUGUCAUCCUGGUCCAUGUAGGACUGGUGCUAACCACCUGCCAUCAUGAGGAUGUGUGCUAGAGUGUGGGACCCUGGCCAAGUGCA` — result for “RBNS enrichment (R)”: 3.63.
`CUAGCCUUUUCUACACCCUCUUUUGAGUGUAGUUUGAUAUUUUGUAAUCAAAAGCUCAUUUCACAAGCAGAAAAAGGCGACAAGUUAAUUAAAGCAAGGAAAAGUGUCAC` — result for “RBNS enrichment (R)”: 0.283.
Under “RBNS enrichment (R)”, `CAGGCUGCCUAGACUCACAGCCUCGGGACCGUUGCCACGGCCUGUCUUCUCGUUCAGGCCUGCCUCUGACAGCACUCACCAUGAGGACAUUCCAUCCUUCACCCCCUCCU` is recorded as 0.362.
`CACAUACAGUUCUUUUUAGGCAUGAGUGUGUAUUACUGAUCCAACAUCUUCAUUCAUUCACUGAGUAUUUAUUGAACGCCUCCUAGGUGUCGGACAUGUACUGGGUGCUG` — result for “RBNS enrichment (R)”: 0.254.
`AAUAUUUCUUCGUAUAGUUUAUUCUUUCUUUUAUAUAUUAUCUAAAUAUAUGUAUAUGUUGUGUAAUACACAUAAUCUGGAAAUGAAUAAAAUGCUAUAUUCUUGGUUUG`: “RBNS enrichment (R)” 0.557.
`CCACGCUGUUGUAAAAACCCAAGUCCCUGUCAUUUGAACCUGGAUCCAGCACUGGUGAACUGAGCUGGGCAGGAAGGGAGAACUUGAAACAGAUUCAGGCCAGCCCAGCC` — result for “RBNS enrichment (R)”: 0.316.

Set 2
Target: Phosphate system positive regulatory protein PHO4, full length, GST-tagged (PHO4, Saccharomyces cerevisiae, UniProt P07270, residues 1-312)
Technique: competition protein-binding microarray
Molecule type: double-stranded DNA, one strand shown
Matrix: in vitro
Tested at: 2 µM
Notes: whole 60-bp probe, lowest competitor level
Together with: Cbf1 competitor, 0.05 µM
Reading: higher = stronger binding
All sequences stand within: … GTCTTGATTCGCTTGACGCTGCTG
Construct (chain): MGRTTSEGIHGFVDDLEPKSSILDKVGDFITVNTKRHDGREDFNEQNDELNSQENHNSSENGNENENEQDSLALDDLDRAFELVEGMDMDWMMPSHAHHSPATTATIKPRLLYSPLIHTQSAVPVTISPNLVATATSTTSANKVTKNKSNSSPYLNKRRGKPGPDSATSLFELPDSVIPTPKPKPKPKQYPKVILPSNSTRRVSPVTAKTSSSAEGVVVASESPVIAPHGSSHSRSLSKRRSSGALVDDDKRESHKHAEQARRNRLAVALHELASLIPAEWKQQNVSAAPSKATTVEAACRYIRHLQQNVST
For `CGCTTTCCTATTGCGCGCATGACAAGGATGGAAAAA`, the fluorescence intensity was 5810 a.u.
With `GCCCATTCTGTGGTGAATGTGACGGAGCAGTTTGAG` the fluorescence intensity was 5130 a.u.
`CAAGGGCGCCCCGGCCACGTGGAATAATACTGACTT` gave a fluorescence intensity of 18300 a.u.
`CTAACGAAGGTTTGGTAGGTGGGTGACAAGCCAAGT` has a fluorescence intensity of 3830 a.u.
For `ATATAAAGTTGTCCTCACATGCGGCGTCCATTGTTC`, the fluorescence intensity was 7520 a.u.
For `CTTTCCCGATCTTGCATTGTGGGTGTAGCACATTTG`, the fluorescence intensity was 6030 a.u.
`AATCGCGATCCCCATCACGTTCTTTAGCCTCATTAT` has a fluorescence intensity of 12200 a.u.
With `GCATTATACCTAAAGCACGCAGAGAAACCTCTCTTT` the fluorescence intensity was 7580 a.u.

Set 3
Target: Interferon regulatory factor 7, full length, phosphomimetic (IRF7, Homo sapiens, UniProt Q92985, residues 1-503, S101K/S471D/S472D/S475D/S476D/S477D/S483D/S484D/S487D)
UniProt Q92985, sequence (whole entry, unmodified, looked up): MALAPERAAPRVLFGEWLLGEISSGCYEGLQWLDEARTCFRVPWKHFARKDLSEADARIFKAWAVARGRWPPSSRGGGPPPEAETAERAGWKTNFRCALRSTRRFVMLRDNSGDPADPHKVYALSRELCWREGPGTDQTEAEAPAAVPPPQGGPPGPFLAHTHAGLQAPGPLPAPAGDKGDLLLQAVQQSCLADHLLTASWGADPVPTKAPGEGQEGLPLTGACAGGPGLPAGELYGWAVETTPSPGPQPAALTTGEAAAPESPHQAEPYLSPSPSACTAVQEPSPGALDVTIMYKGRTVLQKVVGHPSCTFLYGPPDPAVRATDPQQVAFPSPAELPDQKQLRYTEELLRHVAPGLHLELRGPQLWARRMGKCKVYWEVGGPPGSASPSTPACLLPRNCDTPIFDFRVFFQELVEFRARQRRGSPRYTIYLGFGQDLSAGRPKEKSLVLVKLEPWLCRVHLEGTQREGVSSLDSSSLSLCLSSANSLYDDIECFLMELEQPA
Technique: protein-binding microarray
Molecule type: double-stranded DNA, one strand shown
Matrix: in vitro
Tested at: 250 nM
Notes: 60-bp whole probe
Together with: salmon DNA 0.4 mg/ml
Baseline: random background probes
Reading: higher = stronger binding
All sequences stand within: GCCTAGCAC … GTCTTGATTCGCTTGACGCTGCTG
`TGAGGTTTCGGTTCCGGTTAGTGCTAG` has a log fluorescence of 12.1 z-score.
For `TTAGATTCCAGTTTTGATTAGTGCTAG`, the log fluorescence was 3.5 z-score.
The log fluorescence of `GACGATCTCAGACTTGAGACGTGCTAG` is reported as -0.217 z-score.
`TTAAGACTGGGGTTTCGGTTAGTGCTA` has a log fluorescence of 5.45 z-score.
`GTAGATATCAGTATCGATTAGTGCTAG` has a log fluorescence of 0.459 z-score.
With `GGCATTTTTTTTATCAATCAGTGCTAG` the log fluorescence was -0.216 z-score.
`TCGCCTTTTTTGTTGTTTTTGTGCTAG` gave a log fluorescence of 1.38 z-score.
For `GACGGTTTCCTTTGCCTGACGTGCTAG`, the log fluorescence was 2.37 z-score.

Mixed results
For `TVQHQRYYMHWKPHH`, “enrichment fold change” read 6.85 (UDP-N-acetylglucosamine--peptide N-acetylglucosaminyltransferase 110 kDa subunit (OGT, Homo sapiens, UniProt O15294); binding, phage display NGS; peptide; concentration not given; baseline: input library).

Excerpt of the above (set 1):
`GCCAAGGCCGCCAGCGUGUGGAGCAGAGCUCUCCCCUCCUGCUGGGCGUGUGUGACACUGAUGAGUUUCACUGUACUGCAUGUGACUUCUCCCCUGCCCUUCCUCCUGAU` — result for “RBNS enrichment (R)”: 1.77.
